Experimental data from different studies.
Numbered parts are unrelated; each lists some results of a single study. Substitutions count along the parent as printed.

Study 1 — technique: DHFR PCA, deep sequencing; sample: yeast; added: (+)-ABA 0.032 µM; reference: wild-type fitted maximum; direction: higher = stronger binding
Target: ABI1, truncated, D143A, DHFR fusion (Arabidopsis thaliana)
Setting: methotrexate growth selection, single substitutions
Starting sequence: PYL1, truncated, DHFR fusion (Arabidopsis thaliana); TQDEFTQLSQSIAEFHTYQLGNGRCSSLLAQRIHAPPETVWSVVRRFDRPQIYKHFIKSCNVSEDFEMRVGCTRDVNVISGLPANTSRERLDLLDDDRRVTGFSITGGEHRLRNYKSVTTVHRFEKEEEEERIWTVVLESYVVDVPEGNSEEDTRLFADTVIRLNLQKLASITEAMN; partner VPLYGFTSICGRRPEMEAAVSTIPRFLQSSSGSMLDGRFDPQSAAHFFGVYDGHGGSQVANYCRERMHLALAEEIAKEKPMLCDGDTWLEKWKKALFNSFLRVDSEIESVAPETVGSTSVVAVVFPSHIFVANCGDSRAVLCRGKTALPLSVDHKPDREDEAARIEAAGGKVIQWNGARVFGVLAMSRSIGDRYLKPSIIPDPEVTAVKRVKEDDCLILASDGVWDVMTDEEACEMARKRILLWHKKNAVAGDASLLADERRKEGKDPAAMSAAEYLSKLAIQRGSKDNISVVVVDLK
Change | relative binding score [%]
S59E | 24
S150N | 15.6
E151N | 3.23
T154W | -7.04
T135R | -3.82
F157M | 3.22
F15R | -1.13
V145D | -3.22
H16V | 3.66
V44M | 3.86
V62G | -1.46
Y141T | -3.26
N85T | 60.7
D48P | -1.38
G21M | 6.41
R123A | 47.5
Q2K | 16.1
N85E | 37.5
T73D | 4.41
R88Q | 26.4
G148M | -9.57
T73E | 30.8
S27F | -4.49
Q19R | 23.7
D3T | 16.5

Study 2 — target: UBE2L6 UBC core domain (UniProt O14933); technique: yeast two-hybrid; sample: yeast; setting: mostly zero background; reference: not given; direction: higher = stronger interaction
UniProt O14933, sequence (whole entry, looked up): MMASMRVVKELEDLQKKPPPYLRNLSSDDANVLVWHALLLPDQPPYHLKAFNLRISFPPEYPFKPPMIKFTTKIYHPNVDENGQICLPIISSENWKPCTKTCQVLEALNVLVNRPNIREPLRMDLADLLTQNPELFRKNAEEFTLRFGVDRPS
B1: RNF31 RING domain (UniProt Q96EP0); chain AFLRRLLAQECAVCGWALPHNRMQALTSCECTICPDCFRQHFTIALKEKHITDMVCPACGRPDLTDDTQLL
B2: TRIM54 RING domain (UniProt Q9BYV2); chain SMDNLEKQLICPICLEMFSKPVVILPCQHNLCRKCANDVFQASNPLWQSRGSTTVSSGGRFRCPSCRHEVVLDRHGV
B3: MEX3B RING domain (UniProt Q6ZN04); chain SGLRRKGSRDCSVCFESEVIAALVPCGHNLFCMECANRICEKSEPECPVCHTAVTQAIRIF
B4: RNF152 RING domain (UniProt Q8N8N0); chain ETLSQDSLLECQICFNYYSPRRRPKLLDCKHTCCSVCLQQMRTSQKDVRCPWCRGVTKLPPGFS
B5: MKRN2 RING domain (UniProt Q9H000); chain FAFQASQDKVCSICMEVILEKASASERRFGILSNCNHTYCLSCIRQWRCAKQFENPIIKSCPECRVISEFVIPSV
B6: RNF166 RING domain (UniProt Q96A37); chain GDSGLEAQYTCPICLEVYHRPVAIGSCGHTFCGECLQPCLQVPSPLCPLCRLPFDPKKVDK
B7: DEF8 RING domain (UniProt Q6ZN54); chain AGRLGCSLTEIHTLFAKHIKLDCERCQAKGFVCELCREGDVLFPFDSHTSVCADCSAVFHRDCYYDNSTTCPKCARLSLRK
Sequence | lacZ reporter activity
B1 (RNF31 RING domain) | 0
FVKTVEDKYKCEKCHLVLCSPKQTECGHRFCESCMAALLSSSSPKCTACQESIVKDKVF (TRAF3 RING domain (UniProt Q13114)) | 0
QVQSRTKIEECVVCSDKKAAVLFQPCGHMCACENCANLMKKCVQCRAVVERRVPFI (MIB1 RING domain (UniProt Q86YT6)) | 0
YPEEVDDDLICHICLQALLDPLDTPCGHTYCTLCLTNFLVEKDFCPMDRKPLVLQHCKK (LNX1 RING domain (UniProt Q8TBB1)) | 0
YCEMGSTFQLCKICAENDKDVKIEPCGHLMCTSCLTAWQESDGQGCPFCRCEIKGTEPII (CBLB RING domain (UniProt Q13191)) | 0
B2 (TRIM54 RING domain) | 0
B3 (MEX3B RING domain) | 0
RYRQMEERITCPICIDSHIRLVFQCGHGACAPCGSALSACPICRQPIRDRIQIF (MIB2 RING domain (UniProt Q96AX9)) | 0
B4 (RNF152 RING domain) | 0
B5 (MKRN2 RING domain) | 0
B6 (RNF166 RING domain) | 0
LDAASGHPLVCPLCHGQYERPCLLDCFHDFCTGCLRGRATDGRLSCPLCQHQTLVKGPSG (Rnf207 RING domain (UniProt Q3V3A7)) | 0
LGTKLEAKYLCSACRNVLRRPFQAQCGHRYCSFCLASILSSGPQNCAACVHEGIYEEGIS (TRAF2 RING domain (UniProt Q12933)) | 0
AEADPLGRFTCPVCLEVYEKPVQVPCGHVFCSACLQECLKPKKPVCGVCRSALAPGVRAV (RNF114 RING domain (UniProt Q9Y508)) | 0
PEELAVNNDDCAICWDSMQAARKLPCGHLFHNSCLRSWLEQDTSCPTCRMSLNIADNNR (AMFR RING domain (UniProt Q9UKV5)) | 0
B7 (DEF8 RING domain) | 0

Study 3 — technique: RNA Bind-n-Seq; form: RNA; sample: in vitro; concentration: not given; reference: input RNA pool; direction: higher = stronger binding
Target: RING finger protein unkempt homolog, zinc fingers 1-6, GST-SBP tag (UNK, Homo sapiens, UniProt Q9C0B0, residues 30-357)
Setting: RNA with constant flanks, human-mouse chimeric sites, ends assumed
All sequences stand within: GGGAGUUCUACAGUCCGACGAUC … CAACAGAGGAUUGAGCAUCA
Residues (chain): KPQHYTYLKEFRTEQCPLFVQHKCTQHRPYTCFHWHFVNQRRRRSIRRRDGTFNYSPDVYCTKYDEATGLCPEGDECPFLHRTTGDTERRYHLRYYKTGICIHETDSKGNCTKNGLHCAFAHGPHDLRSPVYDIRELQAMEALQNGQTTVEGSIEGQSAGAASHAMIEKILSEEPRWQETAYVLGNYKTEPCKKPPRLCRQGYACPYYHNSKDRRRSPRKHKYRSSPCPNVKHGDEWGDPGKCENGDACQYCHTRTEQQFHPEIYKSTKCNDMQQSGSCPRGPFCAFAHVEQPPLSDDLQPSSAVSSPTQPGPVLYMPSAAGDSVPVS
Strand | bound/input enrichment [ratio]
UUGCCUGAGAACGAGGAUGAGCUGGAGAGCACCAACAGGCGCUACACCAAGAGGGACUGCAGCACUUUUCUCAGAACUAGUGAGACGGGCAUCGUGGACCAGGUCAUGGUCACUCUCAAC | 0.12
CAGGGCAUCAUCUCUCGAGCUGUUAAACACCUGUUCAAGAGUAUUGAUGAGAAAAAGCACAUAGCAAUUAAAAACGGGCUGCCCCCUCCUGAAUUCAAAGUGAAUGCCCAGUUCCUAGAG | 1.15
UCUGAGGUACCACUGAAGAGACCUUAAAAGAAUCAUUUGAGGGCUCUGUUCGUGCAAGAAUAGUCACUGAUCGGGAAACUGGUUCUUUCCAAAGGGUUGGUUUUGUAGACUUUAAUAGUG | 0.991
AAAGCCCAAGUAUUUUGAAAAAAUUCAAACAGAUUUGACAAGGGUAGCCAGCUUGGAGUCUAGCAACUUGCCAAUGUUGCUUACCAACUGGGGGCUUGUUUUUCUUUUCUUCUUUCAAAU | 0.168
CGGAGCCCUCCUCUCCCACAGGCCCAAGAUAUAACCCACCAGUGCCUUCUGUCUGCUUGUCAGCUCUGUCAAUCACGCCUGUCCUCUCACGCCCACACCAAGUGCCCCCACCCCUAAGGG | 0.367
AACAGAUUGUCUUUAAGCAUUCCAAGCGAGAAUGCUGAAAUAGUCAUUGUUGCCCAUGUGCCUUCUGACUGAGCUUUAAUGCUGUUCCAUGUUACAUCUUUCCUUCACUCCAGAAUUGUU | 0.286
AACAGAUUGUCUUUAAGGUCAACGUAGGAGAAUGCUGGGGUGAUCAUUGUUGCCCAUGUGCCUUCUGACUGAGCUUUUAAUUAAUUGCAUGUUACAUCUUUCCUUCACUCCAGAAUUGUU | 0.119
CUCAUGGCUGCAGAAACAGGAAGUGGAAAAACUGGUGCUUUUAGUAUUCCCGUUAUCCAGAUAGUGUAUGAAACUCUGAAAGACCAACAGGAAGGAAAGAAAGGGAAAACAACUAUUAAA | 0.621
GUAUACGGUUAUCGAGGAAAGGACUGUAGAGCGAAUGUAUACCUGCUUCCCACAGGGGAGAUAGUUUAUUUCAUUGCCUCAGUGGUAGUCCUGUUUAAUUAUGAGGAGAGAACUCAGCGA | 1.34
GAGCGUCUUGCCCGCACUGGGAUCAUCGUGACCACUAGUGAGGCUGUUCUGCUUCAGCUGGUGGCUGAUAAGGACCACCCGAAGUUCAAGGAAAUUCAGAACCUAAUUAAGGCGAGUGCC | 0.0833
AGAUAUUUUGAAGAAAAAAAAAACUCGAACAGAUUUGACAAGGGUAGCCAGCUUGGAGUCUAGCAACUUGCCAAUGUGUUUACCAAUCUGGGGGCUUGUUUUUCUUUUCUUCUUUCAAAU | 0.451

Study 4 — target: CCND1, cyclin fold, Cln2 fusion (human); technique: yeast growth competition, sequencing; sample: yeast; setting: weak parent motif; reference: not given; direction: higher = stronger binding
Starting sequence: SLBP docking peptide (human); ARYKRKLLINDFG; partner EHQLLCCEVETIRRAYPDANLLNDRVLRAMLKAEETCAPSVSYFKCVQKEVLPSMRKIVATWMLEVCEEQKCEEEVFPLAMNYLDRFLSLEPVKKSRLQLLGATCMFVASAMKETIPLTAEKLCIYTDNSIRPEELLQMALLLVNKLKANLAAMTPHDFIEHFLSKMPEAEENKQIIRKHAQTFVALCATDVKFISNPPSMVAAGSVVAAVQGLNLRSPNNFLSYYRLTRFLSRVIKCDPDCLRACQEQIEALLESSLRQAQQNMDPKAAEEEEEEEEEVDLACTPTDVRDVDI
Change | normalised enrichment score
ARYKRKLLRNDFG [I9R] | -0.151
ACYKRKLLINDFG [R2C] | -0.0294
ARYHRKLLINDFG [K4H] | 0.399
ARYKGKLLINDFG [R5G] | 0.0202
ARYKRKLLIQDFG [N10Q] | -0.0298
ARYKRGLLINDFG [K6G] | 0.106
ARYKMKLLINDFG [R5M] | 0.332
AFYKRKLLINDFG [R2F] | -0.0904
ALYKRKLLINDFG [R2L] | -0.0789
ARYKRKLLNNDFG [I9N] | 0.136
ARYKRKLLFNDFG [I9F] | 0.138
ARYKRKLLINDFF [G13F] | 0.448
ARYKWKLLINDFG [R5W] | -0.488
ARYKRILLINDFG [K6I] | 0.0919
ARYKRKMLINDFG [L7M] | 0.216
DRYKRKLLINDFG [A1D] | 0.366
ANYKRKLLINDFG [R2N] | 0.0906
ARYKRKLLINWFG [D11W] | 0.328
ARYKNKLLINDFG [R5N] | -0.0824
ARYKRKLRINDFG [L8R] | -0.535
ARYKRKLLINDQG [F12Q] | -0.313
ARYKRKLLINDFL [G13L] | -0.503
ARYKRKLLINDNG [F12N] | -0.225

Study 5 — technique: protein binding microarray; form: double-stranded DNA, one strand shown; sample: in vitro; concentration: not given; reference: not given; direction: higher = stronger binding
Target: Histone acetyltransferase KAT6A, winged helix 1, GST fusion (KAT6A, Homo sapiens, UniProt Q92794, residues 1-85)
Setting: 8-mer, flanks averaged, mean of 2 arrays, mostly near background
Construct (chain): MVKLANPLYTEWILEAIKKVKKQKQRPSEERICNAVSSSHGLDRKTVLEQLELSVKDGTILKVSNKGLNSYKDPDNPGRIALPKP
Strand | E-score
AATGACAC | -0.19
ACAGCAAC | -0.162
AACTCAGA | -0.213
CTCAAGTA | -0.146
AGGCGCAA | 0.181
ACAGGCGC | 0.253
CTCTAGTC | -0.133
CTCGGTTA | 0.0421
ACATTTTC | -0.0298
TCCGAGGA | -0.106
GCCCTTAC | 0.0188
GCACGCAA | 0.154
TAGCCTCA | -0.229
CGATCTCA | -0.0233
GGTTCGCA | 0.105
CTAGCTAA | -0.103
AATGAGAC | -0.164

Excerpt of the above (study 4):
Change | normalised enrichment score
ARYKGKLLINDFG [R5G] | 0.0202
ARYKRKLLIQDFG [N10Q] | -0.0298
ARYKRGLLINDFG [K6G] | 0.106
ARYKMKLLINDFG [R5M] | 0.332
AFYKRKLLINDFG [R2F] | -0.0904
ALYKRKLLINDFG [R2L] | -0.0789
ARYKRKLLNNDFG [I9N] | 0.136
ARYKRKLLFNDFG [I9F] | 0.138
ARYKRKLLINDFF [G13F] | 0.448
ARYKWKLLINDFG [R5W] | -0.488
ARYKRILLINDFG [K6I] | 0.0919
ARYKRKMLINDFG [L7M] | 0.216
DRYKRKLLINDFG [A1D] | 0.366
ANYKRKLLINDFG [R2N] | 0.0906
ARYKRKLLINWFG [D11W] | 0.328
ARYKNKLLINDFG [R5N] | -0.0824
